Results pooled from the literature.
Each line is one published result; not all experiments were run side by side.
PIK3CA E545K: Phosphatidylinositol 4,5-bisphosphate 3-kinase catalytic subunit alpha isoform (PIK3CA, Homo sapiens, UniProt P42336, E545K)
PIK3CA E545A: Phosphatidylinositol 4,5-bisphosphate 3-kinase catalytic subunit alpha isoform (PIK3CA, Homo sapiens, UniProt P42336, E545A)
PIK3CA E542K: Phosphatidylinositol 4,5-bisphosphate 3-kinase catalytic subunit alpha isoform (PIK3CA, Homo sapiens, UniProt P42336, E542K)
PIK3CA: Phosphatidylinositol 4,5-bisphosphate 3-kinase catalytic subunit alpha isoform (PIK3CA, Homo sapiens, UniProt P42336)
PIK3CA M1043I: Phosphatidylinositol 4,5-bisphosphate 3-kinase catalytic subunit alpha isoform (PIK3CA, Homo sapiens, UniProt P42336, M1043I)

Cc1ccc(-c2c(/C=C(\C#N)C(=O)NC(C)C)n(CCCO)c3ncnc(N)c23)cc1 — remaining binding (PIK3CA E545K; cell-free assay, competition with immobilised ligand; 1 µM): 100%
COc1c(Cl)cccc1Nc1c(-c2ccncc2C#C[C@@]2(C)CCCN2C(=O)/C=C/CN(C)C)[nH]c2c1C(=O)NCC2 — remaining binding (PIK3CA E545A; binding, competition with immobilised ligand; 3 µM): 97%
CNC(=O)C1CCN(c2cc(C)c(F)cc2NC(=O)c2ccc(-c3cc(O)ccc3C)c(C)c2)CC1 — remaining binding (PIK3CA E545A; binding, competition with immobilised ligand; 1 µM): 100%
CNC1C[S+]2CC[S+]3CC[S+](C1)[Ru-4]321([N]=C=S)[n]2c3ccc(OC)cc3c3c4c(c5cc(F)c[n+]1c5c32)C(=O)NC4=O (stereo not shown) — remaining binding (PIK3CA E542K; KinomeScan; 0.1 µM; relative to: untreated): 97%
Nc1ncc2c(n1)-c1c([nH]c3ccc(C4=CCOCC4)cc13)CCC2 — remaining binding (PIK3CA; binding, competition with immobilised ligand; 1 µM): 89%
CC(C)=CC1OC(C)(C)C2C=C3C(=O)C(Cl)=CC(O)C3C3C(O)C4OC4C(=O)C132 (stereo not shown) — remaining binding (PIK3CA M1043I; cell-free assay, competition with immobilised ligand; 10 µM): 70%
COc1cc(Nc2nccc(-c3cnn4nc(OC)ccc34)n2)cc(C(F)(F)F)c1 — remaining binding (PIK3CA E545K; binding; 1 µM): 100%
CC(=O)c1cnc(N)nc1N1CC[C@H]1c1nn2ccc(Cl)c2c(=O)n1-c1ccccc1 — remaining binding (PIK3CA E545K; binding, competition with immobilised ligand; 10 µM): 59%
CN1CCN(Cc2ccc(NC(=O)c3cccc(C#Cc4cnc(N)c5ncccc45)c3)cc2C(F)(F)F)CC1 — remaining binding (PIK3CA; cell-free assay, competition with immobilised ligand; 0.5 µM): 100%
C=CC(=O)N1CCCC(n2c(=O)c3ncccc3n(Cc3ccc(Oc4ccccc4)cc3)c2=O)C1 (stereo not shown) — remaining binding (PIK3CA E542K; cell-free assay, competition with immobilised ligand; 1 µM): 89%
C=CC(=O)N1CCc2ccc(-n3c(=O)ccc4cnc5ccc(-c6cnn(C)c6)cc5c43)cc21 — remaining binding (Phosphatidylinositol 4,5-bisphosphate 3-kinase catalytic subunit alpha isoform (PIK3CA, Homo sapiens, UniProt P42336, I800L); KINOMEscan; 1 µM; relative to: DMSO control): 56%
CCN1CCN(Cc2ccc(C(=O)Nc3ccc(C)c(NCc4cnc5[nH]ccc5c4OC)c3)cc2C(F)(F)F)CC1 — remaining binding (Phosphatidylinositol 4,5-bisphosphate 3-kinase catalytic subunit alpha isoform (PIK3CA, Homo sapiens, UniProt P42336, Q546K); binding, competition with immobilised ligand; 1 µM): 99%
Cc1cnc2nc1Nc1cccc(c1)COC/C=C/COCc1cc(ccc1OCCN1CCOCC1)N2 — remaining binding (PIK3CA M1043I; binding; 0.1 µM): 87%

For quick reference, copied from above:
C=CC(=O)N1CCCC(n2c(=O)c3ncccc3n(Cc3ccc(Oc4ccccc4)cc3)c2=O)C1 (stereo not shown) — remaining binding (PIK3CA E542K; cell-free assay, competition with immobilised ligand; 1 µM): 89%
